Measurements of several laboratories.
A part holds a random share of what one study measured. Positions count from the first letter of the parent shown.

Set 1
Target: ABI1, truncated, D143A, DHFR fusion (Arabidopsis thaliana)
Method: DHFR PCA, deep sequencing
Medium: yeast
Setting: methotrexate growth selection, single substitutions
Added: (+)-ABA 58 µM
Baseline: wild-type fitted maximum
Reading: higher = stronger binding
Starting sequence: PYL1, truncated, DHFR fusion (Arabidopsis thaliana); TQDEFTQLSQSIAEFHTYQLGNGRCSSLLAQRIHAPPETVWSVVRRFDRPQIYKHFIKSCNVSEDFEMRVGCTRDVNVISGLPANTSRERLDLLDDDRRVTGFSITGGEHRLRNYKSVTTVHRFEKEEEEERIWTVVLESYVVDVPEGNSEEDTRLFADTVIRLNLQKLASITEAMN; partner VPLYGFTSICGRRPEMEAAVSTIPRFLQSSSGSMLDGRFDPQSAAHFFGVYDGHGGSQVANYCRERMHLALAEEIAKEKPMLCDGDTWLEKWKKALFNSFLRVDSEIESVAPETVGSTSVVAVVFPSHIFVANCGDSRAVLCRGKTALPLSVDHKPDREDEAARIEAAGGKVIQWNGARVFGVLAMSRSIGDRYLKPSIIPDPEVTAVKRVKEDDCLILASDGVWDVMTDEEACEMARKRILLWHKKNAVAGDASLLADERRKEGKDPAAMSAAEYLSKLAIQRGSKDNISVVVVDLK
Change	relative binding score [%]
Y141P	2.69
E151M	80.2
S104W	-4.68
N165A	8.41
R45V	1.33
R90Q	82.2
S104N	12
D92Y	31.1
R155S	58.5
P146C	48.3
M176L	82.2

Set 2
Target: CCNE1, cyclin fold, Cln2 fusion (human)
Method: yeast growth competition, sequencing
Medium: yeast
Setting: strong parent motif
Baseline: not given
Reading: higher = stronger binding
Starting sequence: RBL2 docking peptide (human); STTRRRLFVENDS; partner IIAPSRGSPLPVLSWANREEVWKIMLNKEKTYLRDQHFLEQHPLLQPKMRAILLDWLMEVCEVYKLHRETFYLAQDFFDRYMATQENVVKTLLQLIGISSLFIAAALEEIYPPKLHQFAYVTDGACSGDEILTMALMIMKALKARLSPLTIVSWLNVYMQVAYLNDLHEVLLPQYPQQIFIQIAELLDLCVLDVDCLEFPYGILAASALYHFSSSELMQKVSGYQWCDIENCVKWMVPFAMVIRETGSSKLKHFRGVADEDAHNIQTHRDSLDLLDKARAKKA
Change	normalised enrichment score
V9A	5.62
S1E	4.76
L7W	-0.104
F8C	-0.366
F8N	0.315
T3V	7.64
T3K	0.233
D12Y	4.48
V9Q	5.59

Set 3
Target: RING finger protein unkempt homolog, zinc fingers 1-6, GST-SBP tag (UNK, Homo sapiens, UniProt Q9C0B0, residues 30-357)
Sequence of UniProt Q9C0B0 (30-357, looked up): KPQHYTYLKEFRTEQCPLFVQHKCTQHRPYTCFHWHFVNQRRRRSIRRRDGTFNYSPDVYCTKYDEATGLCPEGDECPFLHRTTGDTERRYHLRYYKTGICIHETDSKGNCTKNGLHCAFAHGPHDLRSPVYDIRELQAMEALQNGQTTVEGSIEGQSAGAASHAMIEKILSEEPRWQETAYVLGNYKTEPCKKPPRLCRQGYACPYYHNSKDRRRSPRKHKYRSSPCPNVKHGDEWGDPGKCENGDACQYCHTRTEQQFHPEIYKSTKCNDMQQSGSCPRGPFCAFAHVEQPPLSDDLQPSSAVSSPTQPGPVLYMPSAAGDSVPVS
Method: RNA Bind-n-Seq
Molecule type: RNA
Medium: in vitro
Tested at: not given
Setting: RNA with constant flanks, human and mouse sites, ends assumed
Baseline: input RNA pool
Reading: higher = stronger binding
Constant ends, left off below: GGGAGUUCUACAGUCCGACGAUC … CAACAGAGGAUUGAGCAUCA
Strand	bound/input enrichment [ratio]
GUUUGUAAGUCAUCUGAUGAGCUAUCUGGAAUAACAGCUCUAACCUCUGCUUCCUACUCAUAUAAAGGGAGACCCAAUAGUUCUUAUCAGCAGAAGUUUCCAGACAGCCACCUAAAUGAA	0.663
AUAACUGAAAUCAGAGAUACUGGUGUAAUGGUAAAAUUAUAUCCAAAUAUGACUGCGGUACUGCUUCAUAACACACAACUUGAUCAACGAAAGAUUAAACAUCCUACUGCCCUAGGAUUA	0.275
GAAACAGAAUUAAAACAUUUCCACUGGGUUUCGCCUGUAAGAAAAAGUGUACCUGAGCACAUAGCUUUUUAAUAGCACUAACCAAUGCCUUUUUAGAUGUAUUUUUGAUGUAUAUAUCUA	12.4
AUUGAUGUUUACGUUAAGAUGAUGUGACCUACACAGAGCAAUUCUAAGAUCUUUCUAAGAUGUUACAUACACAGAGCAAUUCUAAGAUCUUUCUAAUUGCUUGUUUGAGGGAUAUCAUUA	0.18
UAUUUAAGUAUAUGGCCUUCCAGACUUUUCUGUGCAUUUAUAGAUAUUUUUAAUGGGAUCAAAGUGUACAUACUGUUUUGUAACUUUUUUUCACUCAACAAUACCAUGACUGUCUUGCUG	0.788
GGCUUCUCCAACUGUAGAGGUACAGAUUGUCUUAACCUGUUCUUUUCUGUACAGACUUAAAAUUUCUAGUGGCUUUUAUUUUUCUUUGUAUUUUAAUUUUCCUACAAAGUCCUUUUUGGA	11
AAAUGCCCCUGGAAGGAAUACAAAUCAGAUUCUGGAAAGCCUUACUAUUAUAAUUCUCAAACAAAAGAAUCUCGCUGGGCCAAACCUAAAGAACUUGAGGAUCUUGAAGCAAUGAUCAAA	0.277

Set 4
Target: Prothrombin, mature alpha-thrombin (F2, Homo sapiens, UniProt P00734)
Method: aptamer microarray, sandwich
Molecule type: DNA with 2'F-ANA
Medium: in vitro
Tested at: 200 nM
Setting: whole 15-mer aptamer, many near background
Added: Cy3 exosite-II aptamer, 400 nM
Reading: higher = stronger binding
Strand: GGTTGGTGTGGTTGG
Modification	mean fluorescence intensity
2'F-ANA at 3 9 10 11 13	444 a.u.
2'F-ANA at 1 2 4 5 7 10 12 13 14	48.8 a.u.
2'F-ANA at 1 2 3 4 5 6 7 10 12 13 15	51.6 a.u.
2'F-ANA at 5 6 7 8 9 12 13	122 a.u.
2'F-ANA at 1 2 4 8 11	132 a.u.
2'F-ANA at 1 4 7 8 9 11 13	104 a.u.
2'F-ANA at 3 5 6 7 8 11 12 13 15	293 a.u.
2'F-ANA at 4 5 6 7 8 12	163 a.u.
2'F-ANA at 4 5 7 8 9 10 11 12 14	45.9 a.u.
2'F-ANA at 1 3 7 8 9 10 11 15	92.5 a.u.
2'F-ANA at 2 3 6 8 10 11 12 13 14	264 a.u.
2'F-ANA at 3 4 6 9 10 11 13 14	226 a.u.
2'F-ANA at 1 3 4 6 8 9 11 12 13 14 15	179 a.u.
